Measurements pooled from the literature.
Every numbered part comes from another study and shows a few of its results, in no order.
Sequence of UniProt Q92772 (whole entry, looked up): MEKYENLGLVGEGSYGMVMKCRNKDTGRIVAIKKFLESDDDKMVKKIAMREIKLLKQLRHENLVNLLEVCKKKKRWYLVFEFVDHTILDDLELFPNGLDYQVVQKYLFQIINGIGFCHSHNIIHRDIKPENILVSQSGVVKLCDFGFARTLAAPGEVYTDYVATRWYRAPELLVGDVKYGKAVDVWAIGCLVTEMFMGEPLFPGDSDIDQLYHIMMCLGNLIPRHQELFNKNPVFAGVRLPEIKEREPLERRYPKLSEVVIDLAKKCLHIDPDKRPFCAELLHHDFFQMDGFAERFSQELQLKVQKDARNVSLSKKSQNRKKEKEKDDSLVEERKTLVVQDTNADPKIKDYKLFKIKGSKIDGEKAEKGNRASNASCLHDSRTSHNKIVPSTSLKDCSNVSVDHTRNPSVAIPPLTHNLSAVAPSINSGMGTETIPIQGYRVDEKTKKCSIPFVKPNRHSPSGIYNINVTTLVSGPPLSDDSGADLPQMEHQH

Set 1
Target: Sal-like protein 4, full length isoform B (SALL4, Homo sapiens, UniProt Q9UJQ4-2, residues 1-616)
Method: universal PBM
Form: double-stranded DNA, one strand shown
Matrix: in vitro
Tested at: not given
Setting: 8-mer, flanks averaged, mean of replicates
Reading: higher = stronger binding
Residues (chain): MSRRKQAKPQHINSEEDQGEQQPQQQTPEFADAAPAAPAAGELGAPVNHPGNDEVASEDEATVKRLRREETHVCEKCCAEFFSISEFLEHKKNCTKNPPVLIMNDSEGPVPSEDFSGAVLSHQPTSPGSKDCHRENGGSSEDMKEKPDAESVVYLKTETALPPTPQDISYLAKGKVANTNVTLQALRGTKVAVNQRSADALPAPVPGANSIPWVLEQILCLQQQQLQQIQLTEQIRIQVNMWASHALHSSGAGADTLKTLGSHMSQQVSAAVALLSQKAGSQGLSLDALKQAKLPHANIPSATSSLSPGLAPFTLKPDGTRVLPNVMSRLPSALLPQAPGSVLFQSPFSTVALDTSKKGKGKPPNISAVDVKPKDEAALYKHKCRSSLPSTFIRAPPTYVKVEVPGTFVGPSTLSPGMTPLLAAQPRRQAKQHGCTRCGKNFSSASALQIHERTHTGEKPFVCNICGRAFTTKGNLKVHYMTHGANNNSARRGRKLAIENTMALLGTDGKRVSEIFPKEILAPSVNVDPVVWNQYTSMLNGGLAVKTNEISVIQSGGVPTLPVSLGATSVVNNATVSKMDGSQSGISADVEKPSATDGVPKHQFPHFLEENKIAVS
| Strand | E-score |
| --- | --- |
| TACTAGAA | 0.225 |
| AAAAGGGC | 0.0137 |
| TCCCGCCA | -0.174 |
| AATTTCTA | 0.312 |
| CAACCTGA | -0.0167 |
| GATCATAC | -0.0457 |
| ACAAGCAC | -0.0402 |
| AAGAAGGT | 0.0133 |

Set 2
Target: PABPC1L2, full length, GST fusion (mouse, UniProt A0ABA7IW68)
Method: RNAcompete
Form: RNA
Matrix: in vitro
Tested at: 20 nM
Setting: 7-mer, probes averaged, single round
Baseline: mean of 7-mers
Reading: higher = stronger binding
Residues (chain): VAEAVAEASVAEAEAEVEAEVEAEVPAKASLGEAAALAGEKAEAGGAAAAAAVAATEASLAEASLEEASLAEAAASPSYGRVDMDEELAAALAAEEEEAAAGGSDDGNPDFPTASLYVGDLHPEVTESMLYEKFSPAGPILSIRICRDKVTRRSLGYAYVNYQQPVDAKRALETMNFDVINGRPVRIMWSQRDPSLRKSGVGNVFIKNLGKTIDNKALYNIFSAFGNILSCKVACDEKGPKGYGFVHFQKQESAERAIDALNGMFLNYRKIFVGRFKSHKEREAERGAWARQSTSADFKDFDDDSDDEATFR
| Strand | 7-mer Z-score |
| --- | --- |
| GCAUCGG | 0.0116 |
| AAACCAU | 0.575 |
| UCACACU | -0.153 |
| AAGAUUA | 0.416 |
| UGAUGAG | -0.177 |
| UUUAAGC | 0.0968 |
| ACGAAAU | 0.372 |
| UCAAUCC | -0.24 |

Further values, each from its own experiment
| Compound | tested on | assay | test system | setting | how to read | quantity | value |
| --- | --- | --- | --- | --- | --- | --- | --- |
| Cc1onc(-c2c(Cl)cccc2Cl)c1C(=O)N[C@@H]1C(=O)N2[C@@H]1SC(C)(C)[C@@H]2C(=O)O | Plasmodium berghei | inhibitor | Huh-7, GFP-expressing sporozoites, liver stage | 10 µM, 24 h | baseline: untreated control | infection rate | 117% |
| CO[C@H]1CC[C@H](CNc2ccc(S(=O)(=O)NC(=O)c3ccc(N4CCN(CC5=C(c6ccc(Cl)cc6)CC(C)(C)CC5)CC4)cc3Oc3cnc4[nH]ccc4c3)cc2[N+](=O)[O-])CC1 | CDKL2 (Homo sapiens, UniProt Q92772) | cell-free assay, competition with immobilised ligand |  | 1 µM |  | remaining binding | 100% |
| CC[C@H]1OC(=O)[C@H](C)[C@@H](O[C@H]2C[C@@](C)(OC)[C@@H](O)[C@H](C)O2)[C@H](C)[C@@H](O[C@@H]2O[C@H](C)C[C@H](N(C)C)[C@H]2O)[C@](C)(OC)C[C@@H](C)C(=O)[C@H](C)[C@@H](O)[C@]1(C)O | Plasmodium berghei | inhibitor | Huh-7, GFP-expressing sporozoites, liver stage | 10 µM, 24 h | baseline: untreated control | infection rate | 99.2% |

Some of these lines once more (set 1):
| Strand | E-score |
| --- | --- |
| ACAAGCAC | -0.0402 |
| TACTAGAA | 0.225 |
